Measurements collected from several papers.
Numbered parts are unrelated; each lists some results of a single study. Substitutions count along the parent as printed.

Sample 1 — technique: DHFR PCA, deep sequencing; matrix: yeast; added: (+)-ABA 1.4 µM; baseline: wild-type fitted maximum; direction: higher = stronger binding; quantity: relative binding score
Target: ABI1, truncated, D143A, DHFR fusion (Arabidopsis thaliana)
Setting: methotrexate growth selection, single substitutions
Starting sequence: PYL1, truncated, DHFR fusion (Arabidopsis thaliana); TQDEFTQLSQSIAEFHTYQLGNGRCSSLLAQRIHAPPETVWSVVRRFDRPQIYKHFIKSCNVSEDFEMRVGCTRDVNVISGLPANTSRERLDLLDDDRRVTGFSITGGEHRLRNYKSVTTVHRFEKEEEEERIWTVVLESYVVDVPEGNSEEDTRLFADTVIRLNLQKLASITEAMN
Change = F15D; value = -0.106%
Change = K54F; value = -6.9%
Change = P36L; value = 37.8%
Change = I105P; value = -13.9%
Change = R49G; value = 1.67%
Change = D92T; value = 19.1%
Change = G81E; value = -4.98%
Change = I133Y; value = 41.4%
Change = Y18K; value = 0.518%
Change = S104A; value = 3.21%
Change = E89I; value = 1.49%

Sample 2 — technique: protein-binding microarray; molecule type: double-stranded DNA, one strand shown; matrix: in vitro; tested at: not given; direction: higher = stronger binding; quantity: E-score
Target: Max dimerization protein 1, bHLH-zipper, MAX partner unstated (MXD1, Homo sapiens, UniProt Q05195, residues 56-136)
Setting: k-mer, scored over probes, only values ≥0.25
Construct (chain): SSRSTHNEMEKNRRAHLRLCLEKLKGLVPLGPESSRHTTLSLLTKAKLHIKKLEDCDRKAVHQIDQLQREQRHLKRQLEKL
Sequence = GAGGCGCA; value = 0.252
Sequence = ACTCCACG; value = 0.335
Sequence = CTCACCCC; value = 0.311
Sequence = GCCACGCA; value = 0.306
Sequence = CGTGCTGC; value = 0.284
Sequence = ACATGTTA; value = 0.275
Sequence = ACGTGGTG; value = 0.411
Sequence = AACTCGTG; value = 0.403
Sequence = CGCATGCG; value = 0.374
Sequence = ACACACAT; value = 0.323
Sequence = CGTGTGAA; value = 0.299
Sequence = CGGGACAC; value = 0.327
Sequence = GCACACGC; value = 0.38
Sequence = AGGTGTGC; value = 0.266
Sequence = ACGTGTCC; value = 0.394
Sequence = CAAACGTG; value = 0.336
Sequence = CACGCATG; value = 0.436
Sequence = CACGCTGC; value = 0.404
Sequence = TCCCCACA; value = 0.319
Sequence = ACATGATG; value = 0.282
Sequence = TCACATGA; value = 0.401
Sequence = GGGCATGA; value = 0.28
Sequence = CAATGCGG; value = 0.252
Sequence = ACATGACT; value = 0.312
Sequence = AGACACGC; value = 0.366

Sample 3 — target: CCNF, cyclin fold, Cln2 fusion (human); technique: yeast growth competition, sequencing; matrix: yeast; setting: strong parent motif; baseline: not given; direction: higher = stronger binding; quantity: normalised enrichment score
Starting sequence: SAMHD1 docking peptide (human); ASKSRVQLFKDDP; partner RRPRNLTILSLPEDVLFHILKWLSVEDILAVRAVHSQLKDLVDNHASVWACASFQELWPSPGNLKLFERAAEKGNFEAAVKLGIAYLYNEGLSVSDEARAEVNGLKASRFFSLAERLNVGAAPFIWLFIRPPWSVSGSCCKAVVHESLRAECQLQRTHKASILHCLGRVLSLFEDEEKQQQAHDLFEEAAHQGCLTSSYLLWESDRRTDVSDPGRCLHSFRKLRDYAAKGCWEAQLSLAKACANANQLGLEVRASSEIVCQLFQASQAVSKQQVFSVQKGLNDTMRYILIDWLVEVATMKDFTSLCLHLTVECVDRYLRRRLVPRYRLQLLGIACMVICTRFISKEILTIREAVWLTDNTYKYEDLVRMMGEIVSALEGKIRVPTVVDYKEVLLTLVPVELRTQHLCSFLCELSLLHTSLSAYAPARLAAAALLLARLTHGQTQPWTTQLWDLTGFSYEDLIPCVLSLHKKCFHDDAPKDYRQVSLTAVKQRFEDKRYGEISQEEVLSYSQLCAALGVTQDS
Change = ASKSRVQLFKPDP [D11P]; value = 0.902
Change = ASKERVQLFKDDP [S4E]; value = -0.0608
Change = ASKSRMQLFKDDP [V6M]; value = 0.728
Change = ASKSRVQLWKDDP [F9W]; value = 0.666
Change = ASKSRVLLFKDDP [Q7L]; value = 0.784
Change = ASKSRVQLFEDDP [K10E]; value = 0.745
Change = ASKSRVQLFKNDP [D11N]; value = 1.18
Change = ASKFRVQLFKDDP [S4F]; value = 3.06
Change = ASKSRVQLDKDDP [F9D]; value = 0.152
Change = ASKSRVQLEKDDP [F9E]; value = 0.214
Change = ASKSRVQLFKDEP [D12E]; value = 1.7
Change = AGKSRVQLFKDDP [S2G]; value = 1.28
Change = ASKSRVQLFKGDP [D11G]; value = 1.19
Change = ASKSRVQLFKTDP [D11T]; value = 0.812
Change = ASKSRVILFKDDP [Q7I]; value = -0.248
Change = ASKRRVQLFKDDP [S4R]; value = 1.1

Sample 4 — technique: RNAcompete; molecule type: RNA; matrix: in vitro; tested at: 20 nM; setting: 7-mer, probes averaged, single round; baseline: mean of 7-mers; direction: higher = stronger binding; quantity: 7-mer Z-score
Target: PABPC1L2, full length, GST fusion (mouse, UniProt A0ABA7IW68)
Target sequence (chain): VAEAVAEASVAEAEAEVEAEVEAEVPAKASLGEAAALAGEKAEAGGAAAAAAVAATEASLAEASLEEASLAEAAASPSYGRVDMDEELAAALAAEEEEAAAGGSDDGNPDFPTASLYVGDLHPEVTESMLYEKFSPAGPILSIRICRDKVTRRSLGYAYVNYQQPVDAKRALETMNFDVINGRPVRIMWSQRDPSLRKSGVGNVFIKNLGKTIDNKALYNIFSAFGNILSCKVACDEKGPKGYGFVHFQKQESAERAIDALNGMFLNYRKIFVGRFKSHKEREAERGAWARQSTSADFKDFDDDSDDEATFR
Sequence = ACAGGCA; value = 0.394
Sequence = UAAGGUG; value = 0.0297
Sequence = GCGAUAA; value = 0.519
Sequence = CUCAGGG; value = -0.0101
Sequence = CCGUUGC; value = -0.46
Sequence = UUAUUCG; value = -0.335
Sequence = UAAAUCC; value = 0.138
Sequence = CGGCACC; value = -0.193
Sequence = AGUUCUA; value = -0.255
Sequence = GUCGAUC; value = -0.193
Sequence = CAAUGUU; value = -0.249
Sequence = AACUUGU; value = -0.168
Sequence = UGGGGUU; value = -0.0645
Sequence = CAUUCAC; value = -0.122
Sequence = UAAUCUG; value = -0.2
Sequence = UCUCUCA; value = -0.32
Sequence = GAGCCUA; value = -0.204
Sequence = GUCAACA; value = -0.0881
Sequence = AACCGUG; value = -0.0174
